Measured values gathered from unrelated publications.
Protocols differ between the studies behind these lines. ± gives the spread as reported.
VHL/BRD9: VHL/BRD9 (Homo sapiens, UniProt P40337+Q9H8M2)
Chain of UniProt Q9H8M2 (whole entry, looked up): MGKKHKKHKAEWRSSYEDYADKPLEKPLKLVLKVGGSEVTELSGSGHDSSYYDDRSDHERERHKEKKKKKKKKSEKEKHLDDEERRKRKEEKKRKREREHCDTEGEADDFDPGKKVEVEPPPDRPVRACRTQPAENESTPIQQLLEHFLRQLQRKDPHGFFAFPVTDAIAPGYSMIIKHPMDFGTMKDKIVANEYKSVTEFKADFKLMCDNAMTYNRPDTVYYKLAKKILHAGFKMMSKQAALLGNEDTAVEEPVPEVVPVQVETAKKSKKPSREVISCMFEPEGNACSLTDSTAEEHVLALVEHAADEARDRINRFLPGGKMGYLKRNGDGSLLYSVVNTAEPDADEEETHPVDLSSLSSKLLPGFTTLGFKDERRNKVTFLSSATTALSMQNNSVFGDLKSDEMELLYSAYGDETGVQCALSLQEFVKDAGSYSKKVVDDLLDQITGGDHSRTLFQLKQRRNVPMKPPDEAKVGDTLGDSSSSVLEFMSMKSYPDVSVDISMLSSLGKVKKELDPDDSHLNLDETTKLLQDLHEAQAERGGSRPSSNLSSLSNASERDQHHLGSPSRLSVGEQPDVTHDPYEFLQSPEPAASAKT
Chain of UniProt P40337 (whole entry, looked up): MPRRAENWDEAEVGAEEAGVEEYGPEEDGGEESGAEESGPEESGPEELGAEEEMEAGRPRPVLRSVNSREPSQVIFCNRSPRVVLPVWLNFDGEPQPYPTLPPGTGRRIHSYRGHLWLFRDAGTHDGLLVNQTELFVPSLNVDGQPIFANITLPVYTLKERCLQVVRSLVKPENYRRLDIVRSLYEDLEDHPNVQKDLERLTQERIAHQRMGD
CALCR: Calcitonin receptor (CALCR, Homo sapiens, UniProt P30988)
Chain of UniProt P30988 (whole entry, looked up): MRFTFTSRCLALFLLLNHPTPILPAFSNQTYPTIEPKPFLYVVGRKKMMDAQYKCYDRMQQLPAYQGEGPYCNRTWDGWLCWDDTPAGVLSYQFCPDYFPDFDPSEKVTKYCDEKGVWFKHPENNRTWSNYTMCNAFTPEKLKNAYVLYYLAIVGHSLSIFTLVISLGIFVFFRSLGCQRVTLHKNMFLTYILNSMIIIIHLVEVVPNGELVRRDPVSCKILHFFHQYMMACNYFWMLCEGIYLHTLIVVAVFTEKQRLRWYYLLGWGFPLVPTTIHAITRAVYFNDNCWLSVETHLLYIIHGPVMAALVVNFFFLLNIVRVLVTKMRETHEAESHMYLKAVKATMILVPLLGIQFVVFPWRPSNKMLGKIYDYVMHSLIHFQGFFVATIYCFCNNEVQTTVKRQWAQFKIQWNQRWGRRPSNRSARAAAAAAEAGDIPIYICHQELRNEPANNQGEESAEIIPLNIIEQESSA
Chain of UniProt P61981 (whole entry, looked up): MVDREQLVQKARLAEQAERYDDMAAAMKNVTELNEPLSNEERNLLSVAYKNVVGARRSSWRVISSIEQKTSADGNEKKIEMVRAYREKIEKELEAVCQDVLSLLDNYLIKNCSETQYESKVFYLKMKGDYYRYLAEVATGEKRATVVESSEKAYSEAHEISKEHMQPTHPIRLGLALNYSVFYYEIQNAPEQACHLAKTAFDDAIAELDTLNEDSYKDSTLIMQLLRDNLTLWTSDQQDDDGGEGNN
Chain of UniProt P49286 (whole entry, looked up): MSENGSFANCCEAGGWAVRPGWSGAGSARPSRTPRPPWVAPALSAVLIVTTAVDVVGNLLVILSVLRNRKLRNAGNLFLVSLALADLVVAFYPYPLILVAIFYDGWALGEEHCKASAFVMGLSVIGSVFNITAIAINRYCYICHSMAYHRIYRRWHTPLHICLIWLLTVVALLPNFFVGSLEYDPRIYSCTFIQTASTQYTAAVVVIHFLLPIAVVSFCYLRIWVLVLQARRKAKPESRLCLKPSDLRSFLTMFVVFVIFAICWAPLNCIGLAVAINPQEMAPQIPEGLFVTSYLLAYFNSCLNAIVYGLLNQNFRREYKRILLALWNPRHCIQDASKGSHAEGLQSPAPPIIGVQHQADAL
Chain of UniProt Q92731 (whole entry, looked up): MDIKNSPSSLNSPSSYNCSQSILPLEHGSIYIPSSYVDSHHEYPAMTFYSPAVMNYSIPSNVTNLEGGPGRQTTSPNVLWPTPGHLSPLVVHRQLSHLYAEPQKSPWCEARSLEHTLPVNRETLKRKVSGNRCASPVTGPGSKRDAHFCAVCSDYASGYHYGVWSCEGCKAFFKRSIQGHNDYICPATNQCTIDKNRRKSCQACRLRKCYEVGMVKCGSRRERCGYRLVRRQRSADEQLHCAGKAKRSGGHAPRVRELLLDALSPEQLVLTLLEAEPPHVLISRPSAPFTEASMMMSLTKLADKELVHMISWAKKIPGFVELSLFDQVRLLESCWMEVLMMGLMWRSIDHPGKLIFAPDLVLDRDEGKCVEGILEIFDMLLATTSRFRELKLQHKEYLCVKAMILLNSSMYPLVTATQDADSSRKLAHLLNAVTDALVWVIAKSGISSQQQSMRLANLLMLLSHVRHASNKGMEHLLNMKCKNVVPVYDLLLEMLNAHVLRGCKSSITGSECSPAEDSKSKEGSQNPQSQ
Chain of UniProt A7T1N0 (whole entry, unmodified, looked up): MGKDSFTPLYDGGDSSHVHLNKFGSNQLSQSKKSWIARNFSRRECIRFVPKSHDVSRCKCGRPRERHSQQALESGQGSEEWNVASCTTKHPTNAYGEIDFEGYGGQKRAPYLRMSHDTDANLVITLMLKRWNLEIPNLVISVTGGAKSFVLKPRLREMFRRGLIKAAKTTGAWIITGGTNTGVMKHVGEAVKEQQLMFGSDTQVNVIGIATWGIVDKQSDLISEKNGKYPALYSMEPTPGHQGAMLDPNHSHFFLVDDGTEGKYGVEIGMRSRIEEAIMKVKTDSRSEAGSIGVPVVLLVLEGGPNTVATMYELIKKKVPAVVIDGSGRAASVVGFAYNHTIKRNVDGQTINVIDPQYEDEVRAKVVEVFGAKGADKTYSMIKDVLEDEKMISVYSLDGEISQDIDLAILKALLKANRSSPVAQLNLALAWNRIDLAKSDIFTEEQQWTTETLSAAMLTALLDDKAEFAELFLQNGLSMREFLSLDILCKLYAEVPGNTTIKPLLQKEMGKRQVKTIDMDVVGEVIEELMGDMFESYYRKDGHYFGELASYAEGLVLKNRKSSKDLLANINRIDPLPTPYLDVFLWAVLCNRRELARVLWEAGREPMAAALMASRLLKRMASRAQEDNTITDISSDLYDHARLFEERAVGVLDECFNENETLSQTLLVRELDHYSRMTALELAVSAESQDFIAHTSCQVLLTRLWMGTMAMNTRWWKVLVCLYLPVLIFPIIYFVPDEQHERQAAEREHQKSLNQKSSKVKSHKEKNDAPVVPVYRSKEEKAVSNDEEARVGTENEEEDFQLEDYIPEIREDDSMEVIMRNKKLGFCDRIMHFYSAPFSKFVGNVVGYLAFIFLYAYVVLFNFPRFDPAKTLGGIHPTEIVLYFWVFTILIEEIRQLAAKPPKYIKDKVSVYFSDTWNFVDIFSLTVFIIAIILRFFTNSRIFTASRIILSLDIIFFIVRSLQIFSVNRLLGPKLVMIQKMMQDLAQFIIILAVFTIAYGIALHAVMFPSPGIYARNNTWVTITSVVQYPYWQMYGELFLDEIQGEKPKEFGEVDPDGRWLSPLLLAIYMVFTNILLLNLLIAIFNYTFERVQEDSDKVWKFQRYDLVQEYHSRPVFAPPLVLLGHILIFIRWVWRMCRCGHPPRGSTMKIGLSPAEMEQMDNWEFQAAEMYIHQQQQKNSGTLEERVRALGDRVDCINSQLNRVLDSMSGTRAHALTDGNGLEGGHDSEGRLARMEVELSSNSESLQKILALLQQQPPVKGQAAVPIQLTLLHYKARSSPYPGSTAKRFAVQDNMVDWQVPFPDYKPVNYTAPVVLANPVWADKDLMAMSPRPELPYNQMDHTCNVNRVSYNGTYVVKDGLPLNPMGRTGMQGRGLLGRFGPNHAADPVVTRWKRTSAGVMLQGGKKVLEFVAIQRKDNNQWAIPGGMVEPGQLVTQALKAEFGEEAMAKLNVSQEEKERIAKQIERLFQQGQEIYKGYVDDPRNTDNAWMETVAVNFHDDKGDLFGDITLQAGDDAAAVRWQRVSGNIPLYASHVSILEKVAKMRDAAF
Chain of UniProt Q04206 (whole entry, looked up): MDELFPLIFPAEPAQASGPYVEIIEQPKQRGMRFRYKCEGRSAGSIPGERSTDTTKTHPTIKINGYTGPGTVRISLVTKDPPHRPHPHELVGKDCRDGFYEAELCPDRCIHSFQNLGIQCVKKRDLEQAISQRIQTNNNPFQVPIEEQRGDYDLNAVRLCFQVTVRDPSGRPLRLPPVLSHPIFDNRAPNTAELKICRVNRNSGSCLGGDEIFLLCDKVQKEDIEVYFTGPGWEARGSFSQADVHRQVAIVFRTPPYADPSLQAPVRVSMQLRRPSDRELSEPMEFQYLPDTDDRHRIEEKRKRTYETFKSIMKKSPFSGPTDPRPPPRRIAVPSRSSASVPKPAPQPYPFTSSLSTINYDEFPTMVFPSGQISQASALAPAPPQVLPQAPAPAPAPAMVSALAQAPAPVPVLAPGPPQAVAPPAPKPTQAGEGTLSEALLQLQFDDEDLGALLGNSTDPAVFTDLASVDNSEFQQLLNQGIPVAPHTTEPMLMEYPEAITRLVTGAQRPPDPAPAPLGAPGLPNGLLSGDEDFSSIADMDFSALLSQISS

With `Cc1ncc(CNc2nc(N3CC(CCOc4cc(-c5scnc5C)ccc4CNC(=O)[C@@H]4C[C@@H](O)CN4C(=O)[C@@H](NC(=O)C4(F)CC4)C(C)(C)C)C3)nc(N3CCC[C@H]3Cn3ccnn3)n2)c(N)n1` the EC50 was 2.98 µM (VHL/BRD9; ternary complex formation, NanoBiT; HEK293T; 2 h, together with: MLN4924 2 µM).
`O=Cc1ccc([N+](=O)[O-])c(OS(=O)(=O)c2ccc(F)cc2)c1` has an EC50 of greater than 1000 µM (YWHAG/RELA, phospho-Ser45 p65 peptide (Homo sapiens, UniProt P61981+Q04206); ternary complex formation, stabilizer, fluorescence anisotropy).
The EC50 of `c1ccc(COc2ccc(Nc3ncnc4ccc(-c5cccc(N6CCOCC6)c5)cc34)cc2)cc1` is reported as 20 µM (Leishmania major; intracellular amastigote growth, luciferase; RAW264.7 macrophages).
For `CC[C@H](C)[C@@H](C(=O)N[C@@H](CC(C)C)C(=O)N[C@@H](CO)C(=O)N[C@@H](CO)C(=O)N[C@H](C(=O)N[C@@H](CCC(=O)O)C(=O)N[C@H](C(=O)NCC(=O)N[C@@H](CO)C(=O)N[C@@H](CC(N)=O)C(=O)N[C@H](C(=O)N1C[C@H](O)C[C@H]1C(N)=O)[C@@H](C)O)C(C)C)[C@@H](C)O)N(C)C(=O)[C@H](C)NC(=O)CN(C)C(=O)[C@H](Cc1ccccc1)NC(=O)[C@H](CO)NC(=O)[C@H](CO)NC(=O)[C@H](CCCNC(=N)N)NC(=O)[C@H](CCC(N)=O)NC(=O)[C@H](CC(C)C)NC(=O)[C@H](Cc1ccccc1)NC(=O)[C@H](Cc1c[nH]cn1)NC(=O)[C@H](C)NC(=O)[C@H](CC(C)C)NC(=O)[C@H](CCCNC(=N)N)NC(=O)[C@H](CCC(=O)O)NC(=O)[C@@H](NC(=O)[C@H](C)NC(=O)[C@@H]1CC(=O)NCC[C@H](NC(=O)[C@H](CCCNC(=N)N)NC(=O)CC[C@H](NC(=O)CCCCCCCCCCCCCCCCCCC(=O)O)C(=O)O)C(=O)NCC(=O)N[C@@H]([C@@H](C)O)C(=O)N[C@@H](C)C(=O)N[C@@H]([C@@H](C)O)C(=O)N1)[C@@H](C)O`, the EC50 was 0.0501 µM (CALCR; cAMP, agonist).
For `Oc1ccc(C2COc3cc(O)ccc3C2)cc1` (racemic), the EC50 was 0.284 µM (ESR2 (Homo sapiens, UniProt Q92731); array formation, agonist; GFP-ERβ PRL-HeLa; 1 h).
With `CC[C@H](C)[C@@H](C(=O)N[C@@H](CC(C)C)C(=O)N[C@@H](CO)C(=O)N[C@@H](CO)C(=O)N[C@H](C(=O)N[C@@H](CCC(=O)O)C(=O)N[C@H](C(=O)NCC(=O)N[C@@H](CO)C(=O)N[C@@H](CO)C(=O)N[C@H](C(=O)N1CCC[C@H]1C(N)=O)[C@@H](C)O)C(C)C)[C@@H](C)O)N(C)C(=O)[C@H](C)NC(=O)CN(C)C(=O)[C@H](Cc1ccccc1)NC(=O)[C@H](CO)NC(=O)[C@H](CO)NC(=O)[C@H](CCCNC(=N)N)NC(=O)[C@H](CCC(N)=O)NC(=O)[C@H](CC(C)C)NC(=O)[C@H](Cc1ccccc1)NC(=O)[C@H](Cc1c[nH]cn1)NC(=O)[C@H](C)NC(=O)[C@H](CC(C)C)NC(=O)[C@H](CCCNC(=N)N)NC(=O)[C@H](CCC(=O)O)NC(=O)[C@@H](NC(=O)[C@H](C)NC(=O)[C@@H]1CSSC[C@H](NC(=O)[C@H](CCCNC(=N)N)NC(=O)CC[C@H](NC(=O)CCCCCCCCCCCCCCCCCCC(=O)O)C(=O)O)C(=O)NCC(=O)N[C@@H]([C@@H](C)O)C(=O)N[C@@H](C)C(=O)N[C@@H]([C@@H](C)O)C(=O)N1)[C@@H](C)O` the EC50 was 8.71e-05 µM (CALCR; cAMP, agonist).
`O=S(=O)(c1ccc(-c2ccc3ncnc(Nc4ccc(OCc5cccc(Br)c5)c(Cl)c4)c3c2)cc1)N1CCOCC1` has an EC50 of 0.47 µM (Leishmania major; intracellular amastigote growth, luciferase; RAW264.7 macrophages).
For `C#CCN1CCN(c2nc(N3CCC(CCOc4cc(-c5scnc5C)ccc4CNC(=O)[C@@H]4C[C@@H](O)CN4C(=O)[C@@H](NC(=O)C4(F)CC4)C(C)(C)C)CC3)nc(N3CCN(C(=O)C4CC4)C3)n2)CC1=O`, the EC50 was 0.172 µM (VHL/BRD9, with Elongin B/C (Homo sapiens, UniProt P40337+Q9H8M2); ternary complex formation, AlphaScreen; together with: 50 nM His-BRD9 and 20 nM biotin-VCB).
With `CC[C@H](C)[C@@H](C(=O)N[C@@H](CC(C)C)C(=O)N[C@@H](CO)C(=O)N[C@@H](CO)C(=O)N[C@H](C(=O)N[C@@H](CCC(=O)O)C(=O)N[C@H](C(=O)NCC(=O)N[C@@H](CO)C(=O)N[C@@H](CC(N)=O)C(=O)N[C@H](C(=O)N1CCC[C@H]1C(N)=O)[C@@H](C)O)C(C)C)[C@@H](C)O)N(C)C(=O)[C@H](C)NC(=O)CN(C)C(=O)[C@H](Cc1ccccc1)NC(=O)[C@H](CO)NC(=O)[C@H](CO)NC(=O)[C@H](CCCNC(=N)N)NC(=O)[C@H](Cc1c[nH]cn1)NC(=O)[C@H](CC(C)C)NC(=O)[C@H](Cc1ccccc1)NC(=O)[C@H](Cc1c[nH]cn1)NC(=O)[C@H](C)NC(=O)[C@H](CC(C)C)NC(=O)[C@H](CCCNC(=N)N)NC(=O)[C@H](CCC(=O)O)NC(=O)[C@@H](NC(=O)[C@H](C)NC(=O)[C@@H]1CSSC[C@H](NC(=O)[C@H](CCCNC(=N)N)NC(=O)CC[C@H](NC(=O)CCCCCCCCCCCCCCCCCCC(=O)O)C(=O)O)C(=O)NCC(=O)N[C@@H]([C@@H](C)O)C(=O)N[C@@H](C)C(=O)N[C@@H]([C@@H](C)O)C(=O)N1)[C@@H](C)O` the EC50 was 0.000174 µM (CALCR; cAMP, agonist).
`O=C(NC[C@@H](Cc1ccc(F)cc1)N1CCC(O)(C(F)(F)F)CC1)C1(c2ccc(Cl)cc2)CCCC1` has an EC50 of 0.015 µM (TRPA1 (Homo sapiens, UniProt O75762, V875A)).
`COc1cc(I)c(Cc2cc(OC)c(OC)cc2CC(=O)OC(C)(C)C)cc1OC` has an EC50 of 0.00741 µM (MTNR1B (Homo sapiens, UniProt P49286); GTPγS binding, agonist, radiometric; cell membranes).
`CC[C@H](C)[C@@H](C(=O)N[C@@H](CC(C)C)C(=O)N[C@@H](CO)C(=O)N[C@@H](CO)C(=O)N[C@H](C(=O)N[C@@H](CC(N)=O)C(=O)N[C@H](C(=O)NCC(=O)N[C@@H](CO)C(=O)N[C@@H](CC(N)=O)C(=O)N[C@H](C(=O)N1CCCC[C@H]1C(N)=O)[C@@H](C)O)C(C)C)[C@@H](C)O)N(C)C(=O)[C@H](C)NC(=O)CN(C)C(=O)[C@H](Cc1ccccc1)NC(=O)[C@H](CC(N)=O)NC(=O)[C@H](CC(N)=O)NC(=O)[C@H](CO)NC(=O)[C@H](CO)NC(=O)[C@H](CCCNC(=N)N)NC(=O)[C@H](Cc1c[nH]cn1)NC(=O)[C@H](CC(C)C)NC(=O)[C@H](Cc1ccccc1)NC(=O)[C@H](CCC(=O)O)NC(=O)[C@H](C)NC(=O)[C@H](CC(C)C)NC(=O)[C@H](CCCNC(=N)N)NC(=O)[C@H](CCC(N)=O)NC(=O)[C@@H](NC(=O)[C@H](C)NC(=O)[C@@H]1CSSC[C@H](NC(=O)[C@H](CCCNC(=N)N)NC(=O)CC[C@H](NC(=O)CCCCCCCCCCCCCCCCCCC(=O)O)C(=O)O)C(=O)N[C@@H](CC(N)=O)C(=O)N[C@@H]([C@@H](C)O)C(=O)N[C@@H](C)C(=O)N[C@@H]([C@@H](C)O)C(=O)N1)[C@@H](C)O` has an EC50 of 0.000355 µM (CALCR; cAMP, agonist).
`CC(=O)NCCN(c1nc(N2CC(Oc3ccccc3)C2)nc(N2CC3C(CCOc4cc(-c5scnc5C)ccc4CNC(=O)[C@@H]4C[C@@H](O)CN4C(=O)[C@@H](NC(=O)C4(F)CC4)C(C)(C)C)C3C2)n1)C(C)C` (some centres unmarked) gave an EC50 of 0.033 µM (VHL/BRD9; ternary complex formation, NanoBiT; HEK293T; 2 h, together with: MLN4924 2 µM).
With `Nc1ncnc2c1ncn2[C@@H]1O[C@H](COP(=O)(O)OP(=O)(O)OC[C@H]2OC(O)[C@H](O)[C@@H]2O)[C@@H](O)[C@H]1OP(=O)(O)O` (some centres unmarked) the EC50 was 0.13 ± 0.005 µM (TRPM2 (Nematostella vectensis, UniProt A7T1N0, E741C); agonist).

Repeated from above:
For `C#CCN1CCN(c2nc(N3CCC(CCOc4cc(-c5scnc5C)ccc4CNC(=O)[C@@H]4C[C@@H](O)CN4C(=O)[C@@H](NC(=O)C4(F)CC4)C(C)(C)C)CC3)nc(N3CCN(C(=O)C4CC4)C3)n2)CC1=O`, the EC50 was 0.172 µM (VHL/BRD9, with Elongin B/C (Homo sapiens, UniProt P40337+Q9H8M2); ternary complex formation, AlphaScreen; together with: 50 nM His-BRD9 and 20 nM biotin-VCB).
